Published values from different studies.
Numbered parts are unrelated; each lists some results of a single study. Changes are numbered by the printed parent chain.

Series 1
Target: Prothrombin, mature alpha-thrombin (F2, Homo sapiens, UniProt P00734)
Technique: aptamer microarray, sandwich
Molecule type: DNA with 2'F-ANA
Matrix: in vitro
Tested at: 200 nM
Setting: whole 15-mer aptamer, many near background
Added: Cy3 exosite-II aptamer, 400 nM
Direction: higher = stronger binding
Sequence: GGTTGGTGTGGTTGG
| Modification | mean fluorescence intensity |
| --- | --- |
| 2'F-ANA at 2 8 12 13 15 | 618 a.u. |
| 2'F-ANA at 2 3 4 9 12 14 | 335 a.u. |
| 2'F-ANA at 1 3 7 8 9 10 15 | 91.3 a.u. |
| 2'F-ANA at 1 3 4 5 8 10 11 14 15 | 47.8 a.u. |
| 2'F-ANA at 1 2 5 7 8 12 13 | 80.3 a.u. |

Series 2
Target: CCNB2, cyclin fold, Cln2 fusion (human)
Technique: yeast growth competition, sequencing
Matrix: yeast
Setting: weak parent motif
Relative to: not given
Direction: higher = stronger binding
Starting sequence: E2F1 docking peptide (human); PPVKRRLDLETDH; partner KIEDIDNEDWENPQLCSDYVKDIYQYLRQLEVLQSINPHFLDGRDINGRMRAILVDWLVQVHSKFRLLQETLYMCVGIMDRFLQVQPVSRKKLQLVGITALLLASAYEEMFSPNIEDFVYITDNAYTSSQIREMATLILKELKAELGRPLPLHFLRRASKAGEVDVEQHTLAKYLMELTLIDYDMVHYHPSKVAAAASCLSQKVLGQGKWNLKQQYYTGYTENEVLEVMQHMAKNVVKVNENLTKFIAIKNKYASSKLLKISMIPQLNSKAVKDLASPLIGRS
| Substitution | normalised enrichment score |
| --- | --- |
| PPVKRRLHLETDH [D8H] | -0.348 |
| PPVKRRLDLETVH [D12V] | 0.474 |
| PPVKRMLDLETDH [R6M] | 0.158 |
| PPVKRDLDLETDH [R6D] | -0.586 |
| PPQKRRLDLETDH [V3Q] | 0.179 |
| VPVKRRLDLETDH [P1V] | -0.0801 |

Series 3
Target: Sal-like protein 4, full length isoform A (SALL4, Homo sapiens, UniProt Q9UJQ4, residues 1-1053)
Chain of UniProt Q9UJQ4 (whole entry, looked up): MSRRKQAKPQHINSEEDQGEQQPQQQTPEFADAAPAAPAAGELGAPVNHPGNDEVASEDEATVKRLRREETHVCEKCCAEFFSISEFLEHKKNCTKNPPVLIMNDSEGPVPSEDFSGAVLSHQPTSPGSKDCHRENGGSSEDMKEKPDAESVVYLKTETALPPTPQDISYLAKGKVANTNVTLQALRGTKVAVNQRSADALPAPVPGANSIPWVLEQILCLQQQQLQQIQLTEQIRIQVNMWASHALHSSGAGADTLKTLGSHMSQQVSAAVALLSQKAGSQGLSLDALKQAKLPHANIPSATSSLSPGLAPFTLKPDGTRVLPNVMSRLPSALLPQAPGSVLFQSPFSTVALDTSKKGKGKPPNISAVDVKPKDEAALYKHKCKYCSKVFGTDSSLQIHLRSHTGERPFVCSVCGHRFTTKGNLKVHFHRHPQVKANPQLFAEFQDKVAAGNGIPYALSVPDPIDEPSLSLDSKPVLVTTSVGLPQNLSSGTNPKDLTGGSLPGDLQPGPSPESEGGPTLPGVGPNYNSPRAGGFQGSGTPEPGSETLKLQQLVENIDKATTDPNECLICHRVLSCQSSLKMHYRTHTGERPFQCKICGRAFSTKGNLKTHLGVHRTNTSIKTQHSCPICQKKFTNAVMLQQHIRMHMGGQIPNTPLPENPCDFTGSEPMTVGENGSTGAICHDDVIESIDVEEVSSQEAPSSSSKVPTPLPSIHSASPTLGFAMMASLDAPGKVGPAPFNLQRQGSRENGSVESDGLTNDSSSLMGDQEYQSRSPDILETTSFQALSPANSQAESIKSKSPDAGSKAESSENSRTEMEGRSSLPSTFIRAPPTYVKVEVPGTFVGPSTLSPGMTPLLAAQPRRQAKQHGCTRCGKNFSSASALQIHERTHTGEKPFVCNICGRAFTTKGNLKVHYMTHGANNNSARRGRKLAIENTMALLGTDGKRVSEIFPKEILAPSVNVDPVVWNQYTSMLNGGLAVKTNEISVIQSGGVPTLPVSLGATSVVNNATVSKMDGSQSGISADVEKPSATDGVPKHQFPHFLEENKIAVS
Technique: universal PBM
Molecule type: double-stranded DNA, one strand shown
Matrix: in vitro
Tested at: 600 nM
Setting: 8-mer, flanks averaged, mean of replicates
Direction: higher = stronger binding
| Sequence | E-score |
| --- | --- |
| GTTGGTAA | 0.122 |
| ACAGCGGG | -0.163 |
| AAACTGTA | 0.24 |
| CACATCAG | -0.0267 |
| ACGCAACC | -0.0838 |
| ATAGCTGA | 0.0723 |

Single results of other studies
| Substance | target | assay | test system | setting | how to read | quantity | result |
| --- | --- | --- | --- | --- | --- | --- | --- |
| PhoQ, residues 284 288 289 292 302 303 TLASMF | PhoP, residues 12 14 15 18 19 IQSYL (Escherichia coli, UniProt P23836) | Sort-seq, item: YFP reporter | E. coli | PhoQ-PhoP variant library, added: 10 µM Mg2+ | relative to: high Mg2+ state, higher = stronger signaling | fold induction | 3.78 |

Some of these lines once more (series 3):
| Sequence | E-score |
| --- | --- |
| ACGCAACC | -0.0838 |
| AAACTGTA | 0.24 |
| GTTGGTAA | 0.122 |
